Assay results from different studies.
A part holds a random share of what one study measured. Several values in a cell are separate wells, animals, samples, runs or records.

Block 1 — Compound: CCOc1ccc(Nc2c3c(nc4ccccc24)CCC3)cc1
cell line | technique | tested at | time | notes | cytotoxicity
J774.1 | resazurin | 0.00332 µM | 64 h |  | -4% and -5%
HepG2 | resazurin | 0.0166 µM | 48 h |  | -2% and 1%
HepG2 | resazurin | 3.32 µM | 48 h |  | 18% and 20%
J774.1 | resazurin | 66.66 µM | 64 h |  | 100%
PMA-differentiated THP-1 macrophages |  | 8 µM | 64 h |  | 10% and 22%
HEK293 | resazurin | 6.66 µM |  | 10% serum | 12% and 13%
HEK293 | resazurin | 0.0066 µM |  | 10% serum | 3% and -1%
HepG2 | resazurin | 0.0066 µM | 48 h |  | 3% and 2%
HepG2 | resazurin | 0.066 µM | 48 h |  | 0%

Block 2 — effect on: enzyme activity; mode: inhibitor; tested at: 10 µM
Target: Calcium/calmodulin-dependent protein kinase type II subunit alpha (CAMK2A, Homo sapiens, UniProt Q9UQM7)
UniProt Q9UQM7, sequence (whole entry, looked up): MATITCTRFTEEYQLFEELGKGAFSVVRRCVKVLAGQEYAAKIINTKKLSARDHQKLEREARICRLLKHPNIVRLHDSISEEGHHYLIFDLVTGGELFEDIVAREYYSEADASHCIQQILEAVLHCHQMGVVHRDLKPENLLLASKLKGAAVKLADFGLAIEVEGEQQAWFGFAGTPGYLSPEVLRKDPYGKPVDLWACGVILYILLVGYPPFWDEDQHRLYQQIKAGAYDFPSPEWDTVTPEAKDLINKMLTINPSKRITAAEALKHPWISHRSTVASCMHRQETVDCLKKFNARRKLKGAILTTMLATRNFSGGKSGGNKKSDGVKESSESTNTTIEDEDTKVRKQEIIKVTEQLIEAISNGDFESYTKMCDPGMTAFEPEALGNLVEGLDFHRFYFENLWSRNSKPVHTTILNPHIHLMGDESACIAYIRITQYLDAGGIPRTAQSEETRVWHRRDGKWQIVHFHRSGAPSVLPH
Structure (SMILES) | inhibition [%]
Cc1cc(O)c2c(c1)C(=O)c1cccc(O)c1C2=O | -9
NCCC[C@](N)(C(=O)O)C(F)F | -1
CN1CCC(=C2c3ccccc3CCc3sccc32)CC1 | -3
CC(=O)c1ccc2c(c1)N(CCCN1CCN(CCO)CC1)c1ccccc1S2 | -6
C[C@@H](O)[C@H]1C(=O)N2C(C(=O)O)=C(S[C@@H]3CN[C@H](CNS(N)(=O)=O)C3)[C@H](C)[C@H]12 | 3
CCCC(=O)O[C@]1(C(=O)CCl)[C@@H](C)C[C@H]2[C@@H]3CCC4=CC(=O)C=C[C@]4(C)[C@@]3(F)C(=O)C[C@@]21C | -13
NC(=O)/C=C/c1ccccc1 | 4
CON(C)Cc1ccc(O)c2c1C[C@H]1C[C@H]3[C@H](N(C)C)C(O)=C(C(N)=O)C(=O)[C@@]3(O)C(O)=C1C2=O | -2
COc1cc2c(cc1OC)[C@H]1Cc3ccc(OC)c(OC)c3CN1CC2 | -8

Block 3 — effect on: enzyme activity; mode: inhibitor; tested at: 0.5 µM; reference: control
Target: Serine/threonine-protein kinase B-raf (BRAF, Homo sapiens, UniProt P15056)
UniProt P15056, sequence (whole entry, looked up): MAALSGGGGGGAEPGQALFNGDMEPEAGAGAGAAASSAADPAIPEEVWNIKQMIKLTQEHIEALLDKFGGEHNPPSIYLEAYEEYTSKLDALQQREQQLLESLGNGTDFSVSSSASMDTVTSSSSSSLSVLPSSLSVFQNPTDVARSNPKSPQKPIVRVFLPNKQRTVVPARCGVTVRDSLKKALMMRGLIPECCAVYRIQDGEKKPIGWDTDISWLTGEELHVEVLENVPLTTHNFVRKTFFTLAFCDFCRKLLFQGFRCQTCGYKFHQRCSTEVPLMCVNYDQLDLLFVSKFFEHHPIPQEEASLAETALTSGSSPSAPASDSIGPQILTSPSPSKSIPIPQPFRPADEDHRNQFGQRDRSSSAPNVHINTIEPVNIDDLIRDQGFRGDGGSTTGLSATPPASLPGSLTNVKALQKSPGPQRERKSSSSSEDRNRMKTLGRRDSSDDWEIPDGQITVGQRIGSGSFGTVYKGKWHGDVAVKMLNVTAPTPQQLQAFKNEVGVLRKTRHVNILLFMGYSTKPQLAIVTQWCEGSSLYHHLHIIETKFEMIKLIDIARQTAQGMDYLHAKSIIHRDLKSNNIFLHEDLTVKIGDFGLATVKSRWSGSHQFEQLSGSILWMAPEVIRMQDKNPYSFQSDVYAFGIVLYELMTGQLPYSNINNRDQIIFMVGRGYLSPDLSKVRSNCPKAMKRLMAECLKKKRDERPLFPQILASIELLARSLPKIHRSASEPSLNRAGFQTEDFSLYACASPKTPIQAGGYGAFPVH
SMILES | remaining activity [%]
N#CC(c1ccnc(NCCc2cccnc2)n1)c1nc2ccccc2s1 (stereo not shown) | 96.6
COc1cc2c(Nc3ccc(Br)cc3F)ncnc2cc1OCC1CCN(C)CC1 | 94.8
O=Nc1c(-c2c(O)[nH]c3ccccc23)[nH]c2ccccc12 | 105
Nc1nc(Nc2ccc(S(N)(=O)=O)cc2)nn1C(=S)Nc1c(F)cccc1F | 87.2
FC(F)(F)c1ccc(/C=C/c2nc(COc3ccc(CCCCn4ccnn4)cc3)co2)cc1 | 94.3
CC(C)(C)c1nc2c3cc[nH]c(=O)c3c3cc(F)ccc3c2[nH]1 | 117
O=C1NC(=O)/C(=C/c2ccc3c(c2)OC(F)(F)O3)S1 | 96.3
CC(C)n1cnc2c(Nc3cccc(Cl)c3)nc(NCCO)nc21 | 97
C[C@@H](N)[C@H]1CC[C@H](C(=O)Nc2ccncc2)CC1 | 92.9
CC(C)N(CCC(=O)c1ccc2ccccc2c1)Cc1ccccc1 | 95.6
CCN(CC)CCCCN1c2ccccc2Oc2ccc(Cl)cc21 | 98.8
CCCCc1c(-c2ccc(O)cc2)[nH]c2nccnc12 | 99.3
c1cc(-c2cnn3cc(-c4ccc(OCCN5CCCCC5)cc4)cnc23)ccn1 | 93.3
NC(=O)c1ccc(-c2nc(-c3ccc4c(c3)OCCO4)c(-c3ccccn3)[nH]2)cc1 | 96.8
Clc1ccc(Nc2nnc(Cc3ccncc3)c3ccccc23)cc1 | 92.2

Block 4 — effect on: ligand displacement; tested at: 10 µM
Target: Sigma intracellular receptor 2 (TMEM97, Homo sapiens, UniProt Q5BJF2)
UniProt Q5BJF2, sequence (whole entry, looked up): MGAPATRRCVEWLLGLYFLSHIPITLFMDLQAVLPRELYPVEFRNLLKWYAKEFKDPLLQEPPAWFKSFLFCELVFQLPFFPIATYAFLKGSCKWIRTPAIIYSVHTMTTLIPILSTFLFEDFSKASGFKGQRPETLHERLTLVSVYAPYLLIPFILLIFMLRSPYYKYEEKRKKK
Structure (SMILES) | inhibition
Cc1ccc(-c2cnc([C@@]3(O)CC[C@H](C(=O)O)C(C)(C)C3)s2)cc1Nc1cccc(C(F)(F)F)n1 | 27.4%
C[C@@H](c1cccc(C#N)c1)n1cc(Cl)cc(C(N)=O)c1=N | 20.7%
NS(=O)(=O)c1cc(NC(=O)Cc2ccccc2)ccc1Oc1cccc(Cl)c1 | 59.5%
CN1CCN(c2ccnc(NCCc3ccccc3)n2)CC1 | 77.2%
c1ccc(C2CCN(c3cnc4c(N5CCOCC5)nccn34)CC2)cc1 | 31.6%
COCCOc1nc(-c2ccc(Cl)nc2)nc2c1CN(C(=O)c1ncn3ccccc13)CC2 | 55.6%
C[C@@H]1CN(c2cc(-c3n[nH]c4ccc(OC5(C)CC5)cc34)ncn2)C[C@H](C)O1 | 50.4%
Cc1noc([C@H]2C[C@@H](c3ccc(C(F)(F)F)cc3)CN(C(=O)N3CCS(=O)(=O)C3)C2)n1 | 42.4%
O=C(NS(=O)(=O)c1ccc(NCC2CCOCC2)c([N+](=O)[O-])c1)c1ccc(N2CCN(Cc3ccc(C(F)(F)F)cc3-c3ccc(Cl)cc3)CC2)cc1Oc1cnc2[nH]ccc2c1 | 54.3%
COc1cc(N[C@@H]2CCCC[C@]2(O)C(F)(F)F)ccc1F | 27.8%
C[C@H](c1ccc(F)cc1)N(Cc1cccc(C(=O)O)c1)C(=O)c1cnc2ccccc2c1 | 3.36%
O=C1NC(c2ccccn2)Sc2ccccc21 (stereo not shown) | -19%
CN1CCN(C(=O)C(C)(C)c2ccc(C(=O)Nc3cn4cc(-c5cc(C(C)(C)C)cc(C(C)(C)C)c5)ccc4n3)cc2)CC1 | 97.9%
Cc1cc(Nc2nccc(C)n2)cc(-c2cnc([C@@]3(O)CC[C@H](C(=O)O)C(C)(C)C3)s2)c1 | 33.6%
O=C(NCCCC1CCCCC1)c1ccc(CNC(=O)c2cnn(-c3ccccc3)c2C(F)(F)F)cc1 | 54.8%
Nc1cnc(N2CCc3cc(S(=O)(=O)Nc4c(F)cc(Cl)cc4F)cc(N4CCCC4=O)c32)nc1 | -12%
COc1ccc2cc(OCC3(C(=O)O)CN(C(=O)c4ccc(F)cc4)C3)ccc2c1 | -1.29%
CN(C)C(=O)c1sc2nc(N3CCC(S(C)(=O)=O)CC3)cc(C(F)(F)F)c2c1N | 70.6%
Cn1nc(C(=O)NCc2ccc(C(=O)O)cc2)cc1-c1ccc2[nH]ccc2c1 | -10.8%
COc1cc(C(=O)O)ncc1C#Cc1ccccc1NS(=O)(=O)c1cccc2c(N(C)C)ccnc12 | 25%
CC(=O)Nc1ncc(CN2CCC[C@H](Cc3cc(C)nc(C)c3)C2)s1 | 19%
COc1cccc(NC(=O)c2nc3scc(CN(C)Cc4ccccc4)c3c(=O)[nH]2)c1 | -10.8%
CO[C@H]1CC[C@H](CNc2ccc(S(=O)(=O)NC(=O)c3ccc(N4CCN(CC5=C(c6ccc(Cl)cc6)CC(C)(C)CC5)CC4)cc3Oc3cnc4[nH]ccc4c3)cc2[N+](=O)[O-])CC1 | 60.7%
CN([C@@H]1CCc2c(CC(=O)O)c3ccccc3n2C1)S(=O)(=O)c1ccc(F)cc1 | -9.73%
Cc1c(NC(=O)c2cc(C(N)=O)nc3cc(F)ccc23)c(C(F)(F)F)nn1Cc1ccc(C#N)cc1 | -10.3%

Excerpt of the above (block 4):
Structure (SMILES) | inhibition
C[C@@H]1CN(c2cc(-c3n[nH]c4ccc(OC5(C)CC5)cc34)ncn2)C[C@H](C)O1 | 50.4%
Cc1noc([C@H]2C[C@@H](c3ccc(C(F)(F)F)cc3)CN(C(=O)N3CCS(=O)(=O)C3)C2)n1 | 42.4%
O=C(NS(=O)(=O)c1ccc(NCC2CCOCC2)c([N+](=O)[O-])c1)c1ccc(N2CCN(Cc3ccc(C(F)(F)F)cc3-c3ccc(Cl)cc3)CC2)cc1Oc1cnc2[nH]ccc2c1 | 54.3%
COc1cc(N[C@@H]2CCCC[C@]2(O)C(F)(F)F)ccc1F | 27.8%
C[C@H](c1ccc(F)cc1)N(Cc1cccc(C(=O)O)c1)C(=O)c1cnc2ccccc2c1 | 3.36%
O=C1NC(c2ccccn2)Sc2ccccc21 (stereo not shown) | -19%
CN1CCN(C(=O)C(C)(C)c2ccc(C(=O)Nc3cn4cc(-c5cc(C(C)(C)C)cc(C(C)(C)C)c5)ccc4n3)cc2)CC1 | 97.9%
